Measured values gathered from unrelated publications.
Protocols differ between the studies behind these lines. “And” joins repeats or separate records; there may be more than shown.

| SMILES | target | assay | test system | setting | scale | endpoint | result |
| --- | --- | --- | --- | --- | --- | --- | --- |
| Cc1sc2c(c1C)C(c1ccc(Cl)cc1)=NC(CC(=O)OC(C)(C)C)c1nnc(C)n1-2 (stereo not shown) | Type-1 angiotensin II receptor (AGTR1, Homo sapiens, UniProt P30556) | ligand displacement, radioligand |  | 1 µM |  | remaining binding | 100% |
| O=C1NC(=O)c2c1c1cc(F)c[n+]3c1c1c2c2cc(O)ccc2[n]1[Ru-4]312([N]=C=S)[S+]3CC[S+]1CC[S+]2CC3 (stereo not shown) | Receptor tyrosine-protein kinase erbB-4 (ERBB4, Homo sapiens, UniProt Q15303) | enzyme activity |  | 100 nM, human enzyme, with: 10 µM ATP | baseline: untreated | remaining activity | 109% |
| CC(C)CC(C(=O)N1CC2(CC1C#N)C(=O)Nc1ccccc12)N(C)C(=O)c1cc2c(F)cc(F)c(F)c2[nH]1 (stereo not shown) | Cathepsin E (CTSE, Homo sapiens, UniProt P14091) |  |  |  |  | Hill slope | -1.38 |
| Cc1ccc2c(C(C[N+](=O)[O-])c3cccs3)c(-c3ccccc3)[nH]c2c1 (stereo not shown) | Cannabinoid receptor 1 (CNR1, Homo sapiens, UniProt P21554, Y397A) | β-arrestin recruitment, agonist, luciferase |  |  |  | Emax | 34.4% |
| CN(C)[C@H]1C[C@@]23CC[C@@]4(O2)C(=CC[C@]2(C)[C@@H](c5ccc6ccncc6c5)CC[C@H]24)C=C3[C@@H](O)[C@@H]1O | Mitogen-activated protein kinase kinase kinase kinase 5 (MAP4K5, Homo sapiens, UniProt Q9Y4K4) | ATP probe labelling, inhibitor, KiNativ profiling |  | 0.1 µM |  | inhibition | -6.8% |
| CC(C)CC(O)(CC(C)C)c1cn(C(=O)N2CCCC2)nn1 | S-formylglutathione hydrolase (Esd, Mus musculus, UniProt Q9R0P3) | probe labelling, inhibitor, competitive ABPP-SILAC, item: Esd | mouse T cells | concentration not given, 4 h, in situ, single peptide | baseline: treated over DMSO, lower = more inhibition | SILAC ratio | 1.28 and 0.98 and 0.89 and 1.18 and 0.94 and 0.85 and 0.74 |
| CC(C)[C@H]1NC(=O)C[C@H]2/C=C/CCSSC[C@@H](NC1=O)C(=O)N[C@H](Cc1cccc3ccccc13)C(=O)NCC(=O)O2 | Mitogen-activated protein kinase 12 (MAPK12, Homo sapiens, UniProt P53778) | enzyme activity, inhibitor |  | 10 µM |  | inhibition | 1.5% |
| CS(C)(=O)=Nc1ccc(-c2ccc(-c3nc4cc(O[C@@H]5CO[C@H]6[C@@H]5OC[C@H]6O)[nH]c4cc3F)cc2)cc1 | Progesterone receptor (PGR, Homo sapiens, UniProt P06401) | calcium signal, antagonist |  | 10 µM |  | inhibition | 11% |
| N[C@H](C(=O)N1CCCC1)C1CCN(c2nccc3c(-c4ncc(Cl)cc4Cl)cccc23)CC1 | Protein-arginine deiminase type-2 (PADI2, Homo sapiens, UniProt Q9Y2J8) | enzyme activity |  | 0.01573 µM, high-affinity site, with: Ca2+ 1.5 mM |  | kcat | 1.63 s⁻¹ |
| Nc1ccc(/C=C/C(=O)N2CCc3c(oc4c(-c5ccc(F)cc5)cc(-c5ccc(C(=O)N6CCC(F)(F)CC6)cn5)cc34)C2)cn1 | MAP kinase-interacting serine/threonine-protein kinase 2 (MKNK2, Homo sapiens, UniProt Q9HBH9) | binding, competition with immobilised ligand |  | 1 µM |  | remaining binding | 100% |

Some of these lines once more:
| SMILES | target | assay | test system | setting | scale | endpoint | result |
| --- | --- | --- | --- | --- | --- | --- | --- |
| CC(C)CC(C(=O)N1CC2(CC1C#N)C(=O)Nc1ccccc12)N(C)C(=O)c1cc2c(F)cc(F)c(F)c2[nH]1 (stereo not shown) | Cathepsin E (CTSE, Homo sapiens, UniProt P14091) |  |  |  |  | Hill slope | -1.38 |
